Measured values from different studies.
Numbered parts are unrelated; each lists some results of a single study. Changes are numbered by the printed parent chain.

Set 1 — target: CCNB3, cyclin fold, Cln2 fusion (human); technique: yeast growth competition, sequencing; matrix: yeast; notes: weak parent motif; relative to: not given; reading: higher = stronger binding
Parent: DTL docking peptide (human); PSSMRKICTYFHR; partner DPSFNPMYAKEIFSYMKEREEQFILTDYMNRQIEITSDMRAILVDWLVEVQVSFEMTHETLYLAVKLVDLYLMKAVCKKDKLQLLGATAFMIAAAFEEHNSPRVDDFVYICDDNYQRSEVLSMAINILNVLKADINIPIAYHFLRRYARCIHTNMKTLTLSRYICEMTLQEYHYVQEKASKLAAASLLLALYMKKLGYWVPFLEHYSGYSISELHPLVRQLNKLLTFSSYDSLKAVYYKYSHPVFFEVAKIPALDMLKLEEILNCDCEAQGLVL
Substitution | normalised enrichment score
R5A | 0.412
H12A | 0.32
K6A | 0.639
T9A | 0.261
R13A | 0.246
P1A | 0.476

Set 2 — technique: RNA Bind-n-Seq; molecule type: RNA; matrix: in vitro; tested at: 365 nM; relative to: no-protein control; reading: higher = stronger binding
Target: RNA binding protein fox-1 homolog 2, RRM domain, GST-SBP tag (RBFOX2, Homo sapiens, UniProt O43251-10, residues 100-194)
Notes: natural RNA segment, single round, ends assumed
Constant ends, left off below: GGGAGUUCUACAGUCCGACGAUC … UGGAAUUCUCGGGUGCCAA
Residues (chain): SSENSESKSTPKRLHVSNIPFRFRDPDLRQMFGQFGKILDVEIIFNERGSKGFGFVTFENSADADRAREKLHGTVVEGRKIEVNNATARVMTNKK
Strand | RBNS enrichment (R)
UGAGGAAGGCACAGGCAAGCAAGGAGCCAUGAACCACAGGGCCCCAGCCAGCACAGGAUUUGUCCUCAUUCCGUGGGUGAUGGAUGAAUCUAUUGGAGUCCUGAAUAAAU | 0.442
GGAAAUGUUGAAAGAUUGGACAGGGAAGAAUAGCGCUUGGUGUCCUCAUGGUCAUUCUGUCUUACCUUAGUGGCUUGACAGUACUUACUAUAGCUCCUGAGGGAAGCCAA | 0.408
UAAAUAUUUUUUAAAAGAAACGGAUUUGAGCCUCCUUGAUUUUAAUAGAGAACUUCUAGUGUAUGGAUUUAAAGAUUUCUCUUUUUCAUUCAUAUACCAUUUUAUGAGUU | 0.573
UGUCGUUUUCAUAACUUGCUGAAUUUCAGGCAUUUUGUUCUACAUGAGGACUCAUAUAUUUAAGCCUUUUGUGUAAUAAGAAAGUAUAAAGUCACUUCCAGUGUUGGCUG | 0.603
UUCACUGGUUUAUCUACAGAAAUUUCUCUGGGCCUUUUUUUCUGUGUUUGAUUCAACACUGCACUAAGGGGGAAAUGUUCCAUUGAAUAAAAGAGCAGUGUGGUUUUCCG | 0.461
UGCUCUGCUCGGAGAUGGGGCCCGAGGGGCCCGUUUUGUUCAGAAAUAUAUUUUAAAUGUUUAGUAAUUGGCGUGCAGUUGUCUUUGAUUGAGUAUGUAGGUUUCAUCUG | 1.37
ACGAUGGAUCCGUGACAGCACUUUCCUGUUGCACUGAAACUCUUGGCCAUGUAGAGGAAAAGAUAUGGAGUUAUGUGGAUUUCAUCACUAGUAUGUGUGCGUGAGCUGGU | 13.8
CAUAGAGUGGAUAGGCAGACAGGUACUAUUGUAAUGUAUUCUGUAUUUAAUAAUUUAAUAUACUCUAGAAAGUAGACCUCAUGCAUUCUUUUAGCAUGAUUUUCUUUUAA | 1.66
GAAAAAUGGGCAACUUUUACAUUUGACUACAUUAUAUACCUAUGUAUAAAAGUGCGGUGUAACCAUAGACCAUAGCUGCAGGAUAACCAAUUAGUCACUCUUAGAGUAAU | 0.317
CCACAGGGGUGGCUUUGGGAUUGGAUGAUACAGCUUUUGCUUCUGUGUAGUAUACCUGUACAUACUUGUUUCAGGCAGCCUUUCUUUAAUGUUUUCAGUUGGUUUGUAUU | 0.673
GCUGAGGCAGGAGGAUUCUUUGAGCCCAGGAGUUUGAGGUUACAGUGAGCCACAAUCACACCAAUCACUGCACUCCAGCCUGGGCAAUAAAGUAACUCUUGACUCAAAAA | 0.474
CCCUUUGCUGACCCUCCCCAAAGGCUUUGCCCUGCUGCCCUCCCCCUCCUCUCCACCAUCGUCUUCUUGGCCAUGGGAGGCCUUUCCCUAAGCCAGCUGCCCCCAGAGCC | 0.765

Set 3 — technique: protein-binding microarray; molecule type: hairpin DNA; matrix: in vitro; tested at: not given; relative to: not given; reading: higher = stronger binding
Target: Runt-related transcription factor 1, full length (RUNX1, Homo sapiens, UniProt Q01196-8, residues 1-480)
Notes: whole hairpin DNA, median over replicate spots
Strand | median fluorescence [a.u.]
GAGGCCCAACCGCAACAGCCTCCTGGCTGTTGCGGTTGGGCCTCACACTC | 5520
GAGGCCTTTCGCGGTTGGCCTCCTGGCCAACCGCGAAAGGCCTCACACTC | 2930
GAGGCCTGTCGCGCGTGGCCTCCTGGCCACGCGCGACAGGCCTCACACTC (5mC at 30) | 1810
GAGGCCTGTCGCGGTTGGCCTCCTGGCCAACCGCGACAGGCCTCACACTC (5mC at 10 12) | 2660
GAGGCCTGTCGCCGTTGGCCTCCTGGCCAACGGCGACAGGCCTCACACTC (5mC at 31) | 1710
GAGGCCTGTCCGGGTTGGCCTCCTGGCCAACCCGGACAGGCCTCACACTC (5mC at 33) | 1730
GAGGCCTCGTGTGGTTGGCCTCCTGGCCAACCACACGAGGCCTCACACTC | 2230
GAGGCCCAACCGCATCAGCCTCCTGGCTGATGCGGTTGGGCCTCACACTC | 3600
GAGGCCAGTTGTGGTTGGCCTCCTGGCCAACCACAACTGGCCTCACACTC | 3190
GAGGCCAAACCGCAACAGCCTCCTGGCTGTTGCGGTTTGGCCTCACACTC | 9080
GAGGCCTGTCCGGGTTGGCCTCCTGGCCAACCCGGACAGGCCTCACACTC (5mC at 11 33) | 1740
GAGGCCTGTCGCCGTTGGCCTCCTGGCCAACGGCGACAGGCCTCACACTC (5mC at 13) | 1730
CTCAGTTCTGTGCGCTGGACTCCTGTCCAGCGCACAGAACTGAGACACTC (5mC at 31) | 1700

Set 4 — technique: DHFR PCA, deep sequencing; matrix: yeast; together with: (+)-ABA 0 µM; relative to: wild-type fitted maximum; reading: higher = stronger binding
Target: ABI1, truncated, D143A, DHFR fusion (Arabidopsis thaliana)
Notes: methotrexate growth selection, single substitutions
Parent: PYL1, truncated, DHFR fusion (Arabidopsis thaliana); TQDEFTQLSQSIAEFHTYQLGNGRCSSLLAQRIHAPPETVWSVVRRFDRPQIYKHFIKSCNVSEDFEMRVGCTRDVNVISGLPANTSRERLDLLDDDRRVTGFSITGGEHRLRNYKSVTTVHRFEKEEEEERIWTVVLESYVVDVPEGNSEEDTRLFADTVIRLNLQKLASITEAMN
Substitution | relative binding score
V137L | -2.16%
V78C | 33.4%
T173P | 0.00123%
I79R | 0.902%
T173K | -1.48%
T160N | -1.78%
R46S | 3.86%
D65K | 3.99%
D95Y | -7.79%
G81D | 6.52%
V142P | -2.61%
V44Q | -2.33%
S150A | 14.3%
T119G | -2.39%
E4T | 11%
E139A | 6.09%
A158M | 10.4%
E67D | 20.2%
G102K | -0.968%
I105Q | -0.515%
H110W | 78.7%
V145T | -5%
Q19Y | 4.41%

Set 5 — target: JUNB, bZIP domain (human); technique: DHFR protein complementation; matrix: yeast; relative to: wild-type JUN-FOS pair; reading: higher = stronger binding
Notes: single substitutions, most at no-binding floor
Parent: JUN, bZIP domain (human); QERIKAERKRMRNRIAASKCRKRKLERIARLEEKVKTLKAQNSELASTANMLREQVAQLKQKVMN; partner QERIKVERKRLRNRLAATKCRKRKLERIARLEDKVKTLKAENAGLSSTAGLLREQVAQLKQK
Substitution | binding fitness [natural log]
K34V | -0.961
E33R | -1.27
E33L | -1.24
A29L | -1.32
Q41E | -0.953
A57M | -1.1
K34A | -1.09
L38Q | -1.51
V35P | -1.49
Q55L | -1.42
A57T | -1.26
R53I | -1.45
V56K | -1.43

Set 6 — technique: aptamer microarray, sandwich; molecule type: DNA with 2'F-ANA; matrix: in vitro; tested at: 200 nM; together with: Cy3 exosite-II aptamer, 400 nM; reading: higher = stronger binding; strand: GGTTGGTGTGGTTGG
Target: Prothrombin, mature alpha-thrombin (F2, Homo sapiens, UniProt P00734)
Notes: whole 15-mer aptamer, many near background
Modification | mean fluorescence intensity [a.u.]
2'F-ANA at 1 3 7 8 11 12 13 | 488
2'F-ANA at 2 7 8 12 15 | 758
2'F-ANA at 1 2 8 11 13 14 | 53
2'F-ANA at 2 6 12 13 14 | 152
2'F-ANA at 8 9 10 12 13 15 | 174
2'F-ANA at 1 4 5 7 8 10 11 13 14 | 46.7
2'F-ANA at 1 2 4 5 6 10 11 12 14 | 75.2
2'F-ANA at 3 6 8 9 10 11 14 | 375
2'F-ANA at 2 3 6 9 11 | 627
2'F-ANA at 1 2 3 4 7 8 10 12 13 14 | 49
2'F-ANA at 1 4 6 7 10 11 12 | 58
2'F-ANA at 4 8 9 12 14 | 112
2'F-ANA at 2 4 5 6 12 14 15 | 50.4
2'F-ANA at 1 2 3 5 8 9 11 13 14 15 | 46.7
2'F-ANA at 3 7 9 10 12 14 15 | 432
2'F-ANA at 1 2 3 4 7 8 9 10 11 12 13 15 | 61.3
2'F-ANA at 3 6 7 8 12 15 | 1330
2'F-ANA at 2 3 4 5 6 12 14 15 | 69.2
2'F-ANA at 6 7 9 10 13 15 | 137
2'F-ANA at 1 3 9 10 11 12 | 103

Set 7 — technique: universal PBM; molecule type: double-stranded DNA, one strand shown; matrix: in vitro; tested at: 600 nM; reading: higher = stronger binding
Target: Sal-like protein 4, full length isoform A (SALL4, Homo sapiens, UniProt Q9UJQ4, residues 1-1053)
Chain of UniProt Q9UJQ4 (whole entry, looked up): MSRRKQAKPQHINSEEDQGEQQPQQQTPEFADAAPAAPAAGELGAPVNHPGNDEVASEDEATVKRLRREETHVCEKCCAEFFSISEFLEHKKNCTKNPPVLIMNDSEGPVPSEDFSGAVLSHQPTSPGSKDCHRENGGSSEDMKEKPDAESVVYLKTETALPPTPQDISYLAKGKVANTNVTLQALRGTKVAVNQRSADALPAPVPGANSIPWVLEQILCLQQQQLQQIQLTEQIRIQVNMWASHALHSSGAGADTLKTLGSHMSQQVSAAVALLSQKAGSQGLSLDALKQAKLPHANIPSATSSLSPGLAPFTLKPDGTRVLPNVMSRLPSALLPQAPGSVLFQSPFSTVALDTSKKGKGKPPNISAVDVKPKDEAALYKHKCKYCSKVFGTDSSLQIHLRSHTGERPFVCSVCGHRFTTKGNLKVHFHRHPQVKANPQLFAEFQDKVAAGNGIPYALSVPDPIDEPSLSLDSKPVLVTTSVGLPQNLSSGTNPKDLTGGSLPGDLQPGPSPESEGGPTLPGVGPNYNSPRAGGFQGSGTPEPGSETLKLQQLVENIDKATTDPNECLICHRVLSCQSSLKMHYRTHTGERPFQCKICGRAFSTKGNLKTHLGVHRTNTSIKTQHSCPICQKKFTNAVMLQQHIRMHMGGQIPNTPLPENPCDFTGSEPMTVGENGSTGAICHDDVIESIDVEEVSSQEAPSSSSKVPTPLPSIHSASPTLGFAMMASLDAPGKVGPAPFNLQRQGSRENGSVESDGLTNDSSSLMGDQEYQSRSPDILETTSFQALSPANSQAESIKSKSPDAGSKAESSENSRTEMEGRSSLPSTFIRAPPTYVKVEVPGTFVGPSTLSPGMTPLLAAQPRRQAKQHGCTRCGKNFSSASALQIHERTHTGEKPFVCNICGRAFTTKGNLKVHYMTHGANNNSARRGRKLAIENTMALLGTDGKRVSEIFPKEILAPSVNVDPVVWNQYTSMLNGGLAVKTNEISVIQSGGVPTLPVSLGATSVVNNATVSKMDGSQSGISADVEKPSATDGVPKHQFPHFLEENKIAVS
Notes: 8-mer, flanks averaged, mean of replicates
Strand | E-score
GCACCTCC | -0.392
CAAGGGGA | -0.128
ACGCCGAG | -0.317
CCCGAATC | -0.261
TCACGTCA | -0.028
CAGTTAGG | -0.0703
CTCTATCC | -0.116
AACCCTTG | -0.184
ATTGCGAC | 0.0541
CGAATGTC | 0.0331
AAGAGGGT | -0.0804
AGTCCCGC | -0.236
AGCGGATA | -0.155
GGGGACCA | -0.358
CAGGGTCC | -0.319
ATGGATCA | 0.0715
GGGGAGCA | -0.342
CAGGTGAA | 0.0716
CCTCCGCC | -0.283
AACAGTGT | 0.141
AAACCACC | -0.0324
TATTGCAA | 0.231

For quick reference, copied from above (set 6):
Modification | mean fluorescence intensity [a.u.]
2'F-ANA at 2 3 6 9 11 | 627
2'F-ANA at 1 2 3 4 7 8 10 12 13 14 | 49
2'F-ANA at 1 4 6 7 10 11 12 | 58
2'F-ANA at 4 8 9 12 14 | 112
2'F-ANA at 2 4 5 6 12 14 15 | 50.4
2'F-ANA at 1 2 3 5 8 9 11 13 14 15 | 46.7
2'F-ANA at 3 7 9 10 12 14 15 | 432
2'F-ANA at 1 2 3 4 7 8 9 10 11 12 13 15 | 61.3
2'F-ANA at 3 6 7 8 12 15 | 1330
2'F-ANA at 2 3 4 5 6 12 14 15 | 69.2
2'F-ANA at 6 7 9 10 13 15 | 137
2'F-ANA at 1 3 9 10 11 12 | 103
